Measured values of several laboratories.
Parts stem from different laboratories: compare values within a part only.

Block 1
Target: Interferon regulatory factor 7, full length, phosphomimetic (IRF7, Homo sapiens, UniProt Q92985, residues 1-503, S471D/S472D/S475D/S476D/S477D/S483D/S484D/S487D)
Technique: protein-binding microarray
Form: double-stranded DNA, one strand shown
Matrix: in vitro
Concentration: 2200 nM top
Notes: 60-bp whole probe
Together with: salmon DNA 0.4 mg/ml
Reference: random background probes
Direction: higher = stronger binding
Shared flanks, not repeated: GCCTAGCAC … GTGCTAGGTCTTGATTCGCTTGACGCTGCTG
Residues (chain): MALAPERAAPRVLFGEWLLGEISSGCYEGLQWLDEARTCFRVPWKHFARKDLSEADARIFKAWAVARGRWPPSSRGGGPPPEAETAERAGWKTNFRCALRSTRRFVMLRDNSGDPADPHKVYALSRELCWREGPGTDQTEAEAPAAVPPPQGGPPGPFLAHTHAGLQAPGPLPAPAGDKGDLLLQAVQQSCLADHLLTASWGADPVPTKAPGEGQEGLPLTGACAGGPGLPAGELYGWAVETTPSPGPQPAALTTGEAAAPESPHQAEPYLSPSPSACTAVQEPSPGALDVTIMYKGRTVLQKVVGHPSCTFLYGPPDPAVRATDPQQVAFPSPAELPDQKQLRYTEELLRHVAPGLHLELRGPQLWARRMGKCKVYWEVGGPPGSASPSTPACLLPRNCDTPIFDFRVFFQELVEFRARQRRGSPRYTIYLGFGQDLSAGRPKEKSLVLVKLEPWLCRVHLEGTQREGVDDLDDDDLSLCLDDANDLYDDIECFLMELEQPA
`CAAGTTTCTCCTTTCCAAAT`: “fitted relative affinity” 4.27 z-score.
Under “fitted relative affinity”, `TCAAGCCTCCATTTTTAACT` is recorded as 0.735 z-score.
`GCAAACCCCATTCTCAGCCC`: “fitted relative affinity” 0.904 z-score.
`TTAGATATCAGTCTCGATTC`: “fitted relative affinity” 1.42 z-score.
`CAGGGTCTCGCTTCATCTCC`: “fitted relative affinity” 0.782 z-score.

Block 2
Target: Sal-like protein 4, full length isoform A (SALL4, Homo sapiens, UniProt Q9UJQ4, residues 1-1053)
Sequence of UniProt Q9UJQ4 (whole entry, looked up): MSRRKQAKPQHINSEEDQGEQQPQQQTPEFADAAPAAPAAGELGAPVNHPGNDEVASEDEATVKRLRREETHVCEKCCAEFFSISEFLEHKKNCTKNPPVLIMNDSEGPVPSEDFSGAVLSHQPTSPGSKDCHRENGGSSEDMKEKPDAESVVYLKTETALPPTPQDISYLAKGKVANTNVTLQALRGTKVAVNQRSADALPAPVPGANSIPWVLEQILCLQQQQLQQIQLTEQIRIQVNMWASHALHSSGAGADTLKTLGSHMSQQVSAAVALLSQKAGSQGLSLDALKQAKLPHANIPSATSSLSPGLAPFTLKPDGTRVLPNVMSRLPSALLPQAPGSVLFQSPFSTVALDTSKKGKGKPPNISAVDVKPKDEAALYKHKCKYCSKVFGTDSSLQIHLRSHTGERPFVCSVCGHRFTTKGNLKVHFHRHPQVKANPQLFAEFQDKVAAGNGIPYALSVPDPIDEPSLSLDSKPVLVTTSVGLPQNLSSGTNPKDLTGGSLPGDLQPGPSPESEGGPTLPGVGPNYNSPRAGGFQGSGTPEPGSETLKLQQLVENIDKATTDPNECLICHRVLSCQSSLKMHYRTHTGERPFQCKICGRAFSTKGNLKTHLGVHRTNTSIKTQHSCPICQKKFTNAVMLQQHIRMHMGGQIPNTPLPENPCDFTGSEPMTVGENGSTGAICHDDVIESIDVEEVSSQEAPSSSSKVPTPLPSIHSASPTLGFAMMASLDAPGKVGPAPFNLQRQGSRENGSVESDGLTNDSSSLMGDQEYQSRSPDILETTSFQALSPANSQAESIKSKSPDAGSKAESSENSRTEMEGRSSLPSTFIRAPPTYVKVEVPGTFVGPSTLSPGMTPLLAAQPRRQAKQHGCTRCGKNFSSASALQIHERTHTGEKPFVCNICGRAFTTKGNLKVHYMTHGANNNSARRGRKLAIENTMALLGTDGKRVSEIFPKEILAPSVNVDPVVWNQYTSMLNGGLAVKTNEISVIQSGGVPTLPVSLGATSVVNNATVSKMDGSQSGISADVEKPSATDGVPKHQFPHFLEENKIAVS
Technique: universal PBM
Form: double-stranded DNA, one strand shown
Matrix: in vitro
Concentration: 600 nM
Notes: 8-mer, flanks averaged, mean of replicates
Direction: higher = stronger binding
`ACGATGAC` gave an E-score of -0.0171.
`ACACCGAG` has an E-score of -0.0501.
`CCATCAGA` gave an E-score of -0.0268.
`TGCTTCCA` gave an E-score of -0.0394.
`CGTCGGCA` has an E-score of -0.243.
With `GATGGCTA` the E-score was 0.0784.

Block 3
Target: Histone acetyltransferase KAT6A, both winged helices, GST fusion (KAT6A, Homo sapiens, UniProt Q92794, residues 1-181)
Technique: protein binding microarray
Form: double-stranded DNA, one strand shown
Matrix: in vitro
Concentration: not given
Notes: 8-mer, flanks averaged, mean of 2 arrays, mostly near background
Reference: not given
Direction: higher = stronger binding
Target sequence (chain): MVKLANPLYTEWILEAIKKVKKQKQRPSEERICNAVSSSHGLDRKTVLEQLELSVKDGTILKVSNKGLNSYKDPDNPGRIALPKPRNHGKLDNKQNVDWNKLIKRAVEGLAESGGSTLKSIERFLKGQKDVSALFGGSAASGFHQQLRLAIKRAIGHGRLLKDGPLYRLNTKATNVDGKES
`ATTGTTAG` gave an E-score of -0.0572.
`ATAACATC` has an E-score of -0.063.
For `ACGAGAAG`, the E-score was -0.11.
`TTGGTAAA` gave an E-score of -0.0131.
The E-score of `AGCCCCTG` is reported as -0.156.
With `ACCGTACA` the E-score was 0.0355.

Single results of other studies
With `PhoQ, residues 284 288 289 292 302 303 TAVSDG` the fold induction was 10.1 (PhoP, residues 12 14 15 18 19 QQAYL (Escherichia coli, UniProt P23836); Sort-seq, item: YFP reporter; E. coli; PhoQ-PhoP variant library, together with: 10 µM Mg2+; reference: high Mg2+ state, higher = stronger signaling).

A few entries again (block 2):
`CCATCAGA` gave an E-score of -0.0268.
